Results collected from several papers.
Compare with care: the assays were run in different laboratories. Numbers after ± are the reported error. Ends that are not written are not given here. * marks the point of attachment.

Substance | assay | system | conditions | scale | quantity | value
[2H]c1c([2H])c([2H])c2c(C([2H])([2H])[2H])c3c(c([2H])c([2H])c4c([2H])c([2H])c([2H])c([2H])c43)c(C([2H])([2H])[2H])c2c1[2H] | adrenal apoplexy prevention | rat | oral, with: 7,12-DMBA 5 mg i.v. | – | non-protective dose | 1 mg
Palmitoyl-SMTSCAPS (N-palmitoyl; Palmitoyl = CCCCCCCCCCCCCCCC(=O)*) | – | AsPC-1, male SCID mice, subcutaneous AsPC-1 xenograft | intratumoral, 500 µg/mouse/day, 3 weeks, PBS with 80% DMSO vehicle | – | tumour volume | 386 ± 95 mm³
CC(C)C[C@H](NC(=O)CCOCCOCCOCCNC(=O)COCC(=O)Nc1ccc(Oc2ccc3c4nc5nc(nc6[nH]c(nc7nc(nc([nH]4)c3c2)-c2cc(C(C)(C)C)ccc2-7)c2ccc(C(C)(C)C)cc62)-c2ccc(C(C)(C)C)cc2-5)cc1)C(=O)N[C@@H](C)C(=O)N[C@@H](CCCNC(=N)N)C(=O)N[C@@H](CC(C)C)C(=O)N[C@@H](CC(C)C)C(=O)N[C@H](C(N)=O)[C@@H](C)O | near-IR fluorescence imaging | nude mice, HT-29 xenograft | intravenous, 10 mg/kg | – | time to tumour visibility | 24 h
c1ccc(CN(Cc2cccc(CN(Cc3ccccc3)CC3CC3)n2)CC2CC2)cc1 | – | mouse carrageenan paw edema | ip, 10 mg/kg daily, 74 h | baseline: vehicle | paw edema inhibition | < 20%
insulin aspart | euglycaemic clamp | type 1 diabetes patients | subcutaneous, 0.2 U/kg single, 0-60 min, antibody quartile 2, 3.12-6.53 %B/T | – | AUC glucose infusion rate | 113 mg/kg
COc1ccc(-c2nc3ccccc3s2)cc1OCc1nnc(-c2cc([N+](=O)[O-])cc([N+](=O)[O-])c2O)o1 | seizure protection | albino mouse, scPTZ-induced seizure | ip, 4.0 h | – | minimal effective dose | 30 mg/kg
C[N+]1([O-])CCN(C2=Nc3cc(Cl)ccc3Nc3ccccc32)CC1 | agonist | DAT-cre-ribotag mice, hM3Dq in SN, dorsal striatum | subcutaneous, 0.3 mg/kg, 30 to 45 min | – | DOPAC/DA ratio | 1.77 ± 0.08
Cc1csc(-c2nnc(Nc3ccc(Oc4ncccc4-c4ccnc(N)n4)cc3)c3ccccc23)c1 | – | human | 40 mg | – | stable disease duration | > 3 years
difelikefalin | – | Japanese haemodialysis patients with pruritus | intravenous, 1.0 µg/kg thrice weekly, week 8 | baseline: baseline, direction not given | NRS itch score change | -3.64
CN(Cc1cc(Br)cc(Br)c1N)C1CCCCC1 | – | ICR SCID mice, TRAMP cells iv, liver | 30 mg/kg, 8 weeks | baseline: vehicle | mice with metastasis | 27%
O=C(O)c1cc(O)c(O)c(O)c1 | ABTS scavenging, absorbance | – | – | – | EC50 | 560 µM
c1ccc2cc3c(ccc4ccccc43)cc2c1 | adrenal apoplexy prevention | rat | oral, with: 7,12-DMBA 5 mg i.v. | – | non-protective dose | 0.5 mg
COc1ccc(-c2nc3ccccc3s2)cc1OCc1nnc(-c2ccc(O)cc2)o1 | seizure protection | albino mouse, scPTZ-induced seizure | ip, 4.0 h | – | minimal effective dose | 30 mg/kg
SIIVFEKL | flow cytometry, item: CD44hi CD8+ T cells | peptide, OT-I CD8+ T cells, mouse | dose not given, primed 5 days, restimulated 100 ng/mL OVA257, with: no TGF-β1 | – | IL-2 only cells | 5.55%
O=C(/C=C/c1cc(F)cc(F)c1)c1ccc[nH]1 | – | zebrafish larvae, PTZ seizure model | 8.58 µM, 1 h, 5 dpf larvae, with: 2.5 mM pentylenetetrazole | baseline: PTZ alone | distance travelled | decreased
COc1ccc(-c2nc3ccccc3s2)cc1OCc1nnc(-c2ccccc2)o1 | hind limb tonic extension | albino mouse, MES-induced seizure | ip, 0.5 h | – | minimal effective dose | 30 mg/kg
CC[C@H](C)[C@H](NC(=O)[C@H](CO)NC(=O)[C@H](CCC(N)=O)NC(=O)[C@H](CC(C)C)NC(=O)[C@H](Cc1ccc(O)cc1)NC(=O)[C@H](CCCCN)NC(=O)[C@H](CCCCN)NC(=O)[C@H](C)NC(=O)[C@H](C)NC(=O)[C@@H](NC(=O)[C@H](CCC(N)=O)NC(=O)[C@H](CCCCN)NC(=O)[C@H](CCCNC(=N)N)NC(=O)[C@H](CC(C)C)NC(=O)[C@H](CCCNC(=N)N)NC(=O)[C@@H](NC(=O)[C@H](Cc1ccc(O)cc1)NC(=O)[C@H](CC(N)=O)NC(=O)[C@H](CC(=O)O)NC(=O)[C@@H](NC(=O)[C@H](Cc1ccccc1)NC(=O)[C@@H](NC(=O)[C@H](C)NC(=O)[C@H](CC(=O)O)NC(=O)[C@H](CO)NC(=O)[C@@H](N)Cc1c[nH]cn1)C(C)C)[C@@H](C)O)[C@@H](C)O)C(C)C)C(=O)N[C@@H](CCCCN)C(=O)N[C@@H](CC(N)=O)C(=O)N[C@@H](CCCCN)C(=O)N[C@@H](CCCNC(=N)N)C(=O)N[C@@H](Cc1ccc(O)cc1)C(N)=O | IPGTT | db/db mouse | intraperitoneal, 20 nmol/kg, 15 to 120 min, dosed 15 min before glucose | baseline: normal saline | second-phase insulin secretion | 0.51 fold
O=C1NC(=O)C(c2ccccc2)(c2ccccc2)N1 | hind limb tonic extension | albino mouse, MES-induced seizure | ip, 0.5 h | – | minimal effective dose | 30 mg/kg
CCN(CC)c1ccc2nc3ccc(N=Nc4ccc(N(C)CCCC(=O)NCCCC[C@H](NC(=O)CNC(=O)[C@H](CCCNC(=N)N)NC(=O)[C@@H](NC(=O)CNC(=O)[C@H](CC(C)C)NC(=O)[C@@H]5CCCN5C(=O)CNC(=O)CCCCC[N+]5=C(C=CC=CC=C6N(CC)c7ccc8c(S(=O)(=O)[O-])cc(S(=O)(=O)O)cc8c7C6(C)C)C(C)(C)c6c5ccc5c(S(=O)(=O)[O-])cc(S(=O)(=O)O)cc65)C(C)C)C(=O)NCC(=O)NCC(=O)NCCOCCOCCOCCOCCOCCOCCOCCOCCOCCOCCOCCO)cc4)cc3[n+](-c3ccccc3)c2c1 | ex vivo fluorescence imaging | nude mice SCC-7 tumour | iv, 10 nmol/mouse, 2 h | – | tumour to muscle ratio | 6.27 ± 1.46
O=C(/C=C/c1ccc(O)c(O)c1)OCCc1ccccc1 | DPPH | ethanol | 20 µM, 30 min, room temperature | – | radical scavenging | 57%

Repeated from above:
Substance | assay | system | conditions | scale | quantity | value
C[N+]1([O-])CCN(C2=Nc3cc(Cl)ccc3Nc3ccccc32)CC1 | agonist | DAT-cre-ribotag mice, hM3Dq in SN, dorsal striatum | subcutaneous, 0.3 mg/kg, 30 to 45 min | – | DOPAC/DA ratio | 1.77 ± 0.08
Cc1csc(-c2nnc(Nc3ccc(Oc4ncccc4-c4ccnc(N)n4)cc3)c3ccccc23)c1 | – | human | 40 mg | – | stable disease duration | > 3 years
